Published values collected from several papers.
Compare with care: the assays were run in different laboratories. ± marks the error that the study gave. Values after ≈ are worked out from the molar mass of the structure shown.

`Cc1[nH]c(=O)c(CNC(=O)c2ccc([N+](=O)[O-])nc2)c2c1CCCC2` has an MIC of 2.3 µg/mL (≈ 6.72 µM) (Mycobacterium tuberculosis; microbial growth, resazurin; H37RV).
The IC50 of `CCN(CC)CCCC(C)Nc1ccnc2cc(Cl)ccc12` (stereo not drawn) is reported as 5.3 µM (unidentified influenza virus; viral replication, inhibitor; MDCK, H1N1 PR/8; 24 h).
For `CCC(CC)O[C@@H]1C=C(C(=O)O)C[C@H](N)[C@H]1NC(C)=O`, the EC50 was 4.3 µM (Influenza A virus; viral cytopathic effect, MTS; MDCK, H1N1).
With `CC(=O)N[C@H]1[C@H]([C@H](O)[C@H](O)CO)OC(SCCOCCOCCOCCSC2(C(=O)O)C[C@H](NC(=N)N)[C@@H](NC(C)=O)[C@H]([C@H](O)[C@H](O)CO)O2)(C(=O)O)C[C@@H]1NC(=N)N` (stereo partly drawn) the IC50 was 0.01 to 1 µM (Influenza A virus; H1N1 A/California/07/2009).
`CN[C@@](C)(C[18F])C(=O)O` has a tracer uptake of 0.9 %ID/g (DU-145 tumour model; host not given, muscle; 2 h, tumour-bearing).
`C[C@H]1CNCCc2ccc(Cl)cc21` gave an AUC(0-inf) of 33.4 ng·h/mL (male Sprague-Dawley rat, plasma; subcutaneous, 0.5 mg/kg, single dose).
For `CC[C@H](C)[C@@H]1NC(=O)[C@H](CCC(=O)O)NC(=O)[C@H](C)NC(=O)[C@H](C)NC(=O)[C@H]([C@@H](C)O)NC(=O)[C@H](CCC(N)=O)NC(=O)[C@@H]2CSSC[C@H](NC(=O)[C@H](CC(N)=O)NC(=O)CNC(=O)[C@H](CC(N)=O)NC(=O)[C@H](CC(=O)O)NC(=O)[C@H](C(C)C)NC(=O)[C@H](CCSC)NC(=O)[C@H]([C@@H](C)CC)NC(=O)[C@H](CCCCN)NC(=O)[C@H](C(C)C)NC(=O)[C@H]([C@@H](C)O)NC(=O)[C@H](Cc3ccc(O)cc3)NC(=O)CNC(=O)[C@H](Cc3ccccc3)NC(=O)[C@H](C)NC(=O)[C@H](CCCNC(=N)N)NC(=O)[C@H](Cc3c[nH]c4ccccc34)NC1=O)C(=O)N[C@@H](CCCNC(=N)N)C(=O)N[C@@H](CC(C)C)C(=O)N[C@@H](Cc1c[nH]cn1)C(=O)N[C@@H](C(C)C)C(=O)N[C@H](C(=O)O)CSSC[C@H](N)C(=O)N[C@@H]([C@@H](C)CC)C(=O)N[C@@H](CCC(=O)O)C(=O)N[C@@H](CCC(N)=O)C(=O)N[C@@H](CO)C(=O)N[C@@H](Cc1ccccc1)C(=O)N[C@@H]([C@@H](C)O)C(=O)N[C@@H]([C@@H](C)O)C(=O)N[C@@H](CC(C)C)C(=O)N[C@@H](Cc1ccccc1)C(=O)N[C@@H](C)C(=O)N2`, “protective dose ratio” read 100 fold (influenza A H1N1 CA09; mouse BALB/c; reference: FI6v3 over compound, higher = more potent).
`CC(=O)N[C@H]1[C@H]([C@H](O)[C@H](O)CO)OC(SCCOCCOCCOCCOCCOCCSC2(C(=O)O)C[C@H](NC(N)=O)[C@@H](NC(C)=O)[C@H]([C@H](O)[C@H](O)CO)O2)(C(=O)O)C[C@@H]1NC(=N)N` (stereo partly drawn) has an IC50 of 1 µM (Influenza A virus; plaque formation; H1N1; 30 min).
`CC(N)C12CC3CC(CC(C3)C1)C2` (stereo not drawn) has an EC50 of 0.4 µM (Influenza A virus H3N2; viral replication, visual CPE score; MDCK).
With `CC(=O)N[C@H]1[C@H]([C@H](O)[C@H](O)CO)OC(SCCCCCCS)(C(=O)O)C[C@@H]1NC(=N)N` (stereo partly drawn) the IC50 was 1 to 10 µM (Influenza A virus; 0.5 h).
`CC(=O)N[C@H]1[C@H]([C@H](O)[C@H](O)CO)OC(C(=O)O)=C[C@@H]1N=C(N)N` gave an MBIC90 of greater than 50 µM (Streptococcus pneumoniae; biofilm formation; no inhibition up to value).
The MIC of `Cc1ccc(C(=O)NCc2c3c(c(C)[nH]c2=O)CCCC3)cn1` is reported as 1.3 µg/mL (≈ 4.17 µM) (Mycobacterium tuberculosis; microbial growth, resazurin; H37RV).
For `Cc1ccc2c(c1)/C(=N/NC(=O)N/N=C1\C(=O)Nc3ccc(C)cc31)C(=O)N2`, the EC50 was greater than 20 µM (Influenza A virus H3N2; viral replication, visual CPE score; MDCK).
With `Cc1ccc(C(=O)NCc2c(C)c3c([nH]c2=O)CCCC3)cn1` the MIC was greater than 50 µg/mL (Mycobacterium tuberculosis; microbial growth, resazurin; H37RV).
With `O=C1Nc2ccccc2/C1=N/NC(=S)N/N=C1\C(=O)Nc2ccccc21` the EC50 was 72 ± 27 µM (Influenza A virus H3N2; viral replication, visual CPE score; MDCK).
`Cc1[nH]c(=O)c(CNC(=O)c2ccc([N+](=O)[O-])o2)c2c1CCCC2` has an MIC of 2.8 µg/mL (≈ 8.45 µM) (Mycobacterium tuberculosis; microbial growth, resazurin; H37RV).
`O=C(N/N=C1\C(=O)Nc2ccc([N+](=O)[O-])cc21)N/N=C1\C(=O)Nc2ccc([N+](=O)[O-])cc21` has an EC50 of 72 ± 27 µM (Influenza A virus H3N2; viral replication, visual CPE score; MDCK).
`NC(=O)c1ncn([C@@H]2O[C@H](CO)[C@@H](O)[C@H]2O)n1` gave an IC50 of 39 µM (unidentified influenza virus; viral replication; MDCK, H1N1; 48 h).

Excerpt of the above:
The IC50 of `CCN(CC)CCCC(C)Nc1ccnc2cc(Cl)ccc12` (stereo not drawn) is reported as 5.3 µM (unidentified influenza virus; viral replication, inhibitor; MDCK, H1N1 PR/8; 24 h).
With `O=C1Nc2ccccc2/C1=N/NC(=S)N/N=C1\C(=O)Nc2ccccc21` the EC50 was 72 ± 27 µM (Influenza A virus H3N2; viral replication, visual CPE score; MDCK).
